Experimental data from different studies.
Every numbered part comes from another study and shows a few of its results, in no order. Positions count from the first letter of the parent shown.

Series 1 — target: CCNE2, cyclin fold, Cln2 fusion (human); technique: yeast growth competition, sequencing; sample: yeast; notes: weak parent motif; baseline: not given; direction: higher = stronger binding
Starting sequence: SGO1 docking peptide (human); PLAKRALKYTDEK
Change | normalised enrichment score
T10A | 0.765
E12A | 0.422
K4A | 0.374
K13A | 0.157
L2A | 0.259
P1A | 0.388

Series 2 — target: ATF7, bZIP domain (human); technique: DHFR protein complementation; sample: yeast; baseline: wild-type JUN-FOS pair; direction: higher = stronger binding
Notes: single substitutions, most at no-binding floor
Starting sequence: JUN, bZIP domain (human); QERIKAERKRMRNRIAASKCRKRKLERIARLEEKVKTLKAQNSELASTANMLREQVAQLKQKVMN; partner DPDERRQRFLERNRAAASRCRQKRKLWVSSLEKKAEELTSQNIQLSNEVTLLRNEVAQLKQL
Change | binding fitness [natural log]
L31S | -1.52
T48C | -1.05
T37W | -0.858
N42W | -1.45
S47G | -1.08
Q41A | -1
V35G | -1.47
V35W | -1.49

Other studies, line by line
Substance | tested on | assay | system | conditions | endpoint | value
Histone H2B type 1-C/E/F/G/I (Homo sapiens, UniProt P62807) | H2AC14 (Homo sapiens, UniProt Q99878) | cross-linking MS | – | hits only | interaction screen | cross-linked
RQHPGLFPF | HLA class I histocompatibility antigen, C alpha chain, allele C*04:01 (Homo sapiens, UniProt P10321) | peptide-MHC binding | peptide | concentration not given | binding | inactive

Excerpt of the above (series 1):
Change | normalised enrichment score
P1A | 0.388
